Measured values of several laboratories.
pIC50: −log10 of the molar value.
PFF0160c E182D: Dihydroorotate dehydrogenase (quinone), mitochondrial (PFF0160c, Plasmodium falciparum, UniProt Q08210, E182D)
UniProt Q15375, sequence (whole entry, looked up): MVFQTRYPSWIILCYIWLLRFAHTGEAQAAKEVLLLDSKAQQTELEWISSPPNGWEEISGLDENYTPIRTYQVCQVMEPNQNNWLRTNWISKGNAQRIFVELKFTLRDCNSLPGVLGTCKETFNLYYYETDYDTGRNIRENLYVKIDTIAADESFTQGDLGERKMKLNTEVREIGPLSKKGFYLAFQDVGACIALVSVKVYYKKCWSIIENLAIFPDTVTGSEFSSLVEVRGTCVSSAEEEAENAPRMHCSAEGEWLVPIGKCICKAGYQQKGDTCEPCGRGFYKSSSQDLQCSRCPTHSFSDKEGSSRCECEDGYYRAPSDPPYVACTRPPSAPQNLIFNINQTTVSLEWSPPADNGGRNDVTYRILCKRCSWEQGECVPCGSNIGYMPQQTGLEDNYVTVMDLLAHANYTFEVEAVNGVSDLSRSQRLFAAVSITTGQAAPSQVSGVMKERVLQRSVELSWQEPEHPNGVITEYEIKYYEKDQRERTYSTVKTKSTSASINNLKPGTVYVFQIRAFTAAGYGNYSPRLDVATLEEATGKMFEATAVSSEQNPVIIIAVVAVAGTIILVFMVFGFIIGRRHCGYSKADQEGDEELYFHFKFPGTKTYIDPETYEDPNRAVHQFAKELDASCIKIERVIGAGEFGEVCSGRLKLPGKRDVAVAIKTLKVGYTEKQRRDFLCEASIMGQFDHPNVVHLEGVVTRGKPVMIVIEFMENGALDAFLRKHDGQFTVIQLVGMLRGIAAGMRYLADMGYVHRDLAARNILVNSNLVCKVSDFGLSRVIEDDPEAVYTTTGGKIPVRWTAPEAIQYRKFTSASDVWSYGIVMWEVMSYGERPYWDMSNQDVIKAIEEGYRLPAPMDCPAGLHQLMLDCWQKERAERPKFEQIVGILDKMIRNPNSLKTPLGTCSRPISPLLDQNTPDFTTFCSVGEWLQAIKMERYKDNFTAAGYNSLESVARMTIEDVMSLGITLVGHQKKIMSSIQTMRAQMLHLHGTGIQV

CC(C)[C@H](NC(=O)c1ccccc1NC(=O)c1ccc(O)cc1)C(=O)N[C@H](CO)C(C)C — CC50 (MRC5; cell growth or viability, MTT; 72 h): > 250000 nM
C[N+]1=C2C=C(NCCc3ccc(O)cc3)C(=O)c3[nH]cc(c32)CC1 — CC50 (HeLa; cell growth or viability, MTT; 72 h): 500 nM
[2H]c1c([2H])c([C@]2([2H])CCCN2C(=O)C(C)(C)Oc2ccc3cn[nH]c3c2)c([2H])c([2H])c1C([2H])([2H])[2H] — remaining binding (Ephrin type-A receptor 7 (EPHA7, Homo sapiens, UniProt Q15375); binding, competition with immobilised ligand; 1 µM): 72%
COc1ccc(-n2ccnc2SCC(=O)Nc2cc(C(F)(F)F)ccc2Cl)c(OC)c1 — pIC50 (PFF0160c E182D; enzyme activity, inhibitor, absorbance): 6.87
Cn1cc2c3c1C(=O)C(N)=CC3=NCC2 — CC50 (HeLa; cell growth or viability, MTT; 72 h): 2000 nM
COC(=O)C=Cc1ccc(OC(C)=O)c(OC)c1 — CC50 (HaCaT; cell growth or viability, MTT; 24 h): > 250000 nM
CC(C)(C)[C@H](NC(=O)C(F)(F)F)C(=O)N1C[C@H]2[C@@H]([C@H]1C(=O)N[C@H](C#N)C[C@@H]1CCNC1=O)C2(C)C — CC50 (Vero; cell growth or viability): > 100000 nM
COc1ccc(-n2ccnc2SCC(=O)Nc2cc(C)ccc2C)c(OC)c1 — pIC50 (PFF0160c E182D; enzyme activity, inhibitor, absorbance): 5.94
COC(=O)C=Cc1ccc(OC)c(OC)c1 — CC50 (HaCaT; cell growth or viability, MTT; 24 h): > 250000 nM
CCNC(=O)[C@@H](NC(=O)c1ccccc1NC(=O)c1ccc(OC)cc1)C(C)C — CC50 (MRC5; cell growth or viability, MTT; 72 h): > 250000 nM
O=c1nc(NO)ccn1[C@@H]1O[C@H](CO)[C@@H](O)[C@H]1O — CC50 (Vero; cell growth or viability): 24300 nM

A few entries again:
C[N+]1=C2C=C(NCCc3ccc(O)cc3)C(=O)c3[nH]cc(c32)CC1 — CC50 (HeLa; cell growth or viability, MTT; 72 h): 500 nM
